Measured values gathered from unrelated publications.
Protocols differ between the studies behind these lines. Several values in a cell are separate wells, animals, samples, runs or records. ± marks the error that the study gave. No end group written: not given here.
B1: bicyclic; chain ACSMCHPQGDFCYWACSG (also: bicyclic or more (positions not given here))
Sequence of UniProt Q16678 (whole entry, looked up): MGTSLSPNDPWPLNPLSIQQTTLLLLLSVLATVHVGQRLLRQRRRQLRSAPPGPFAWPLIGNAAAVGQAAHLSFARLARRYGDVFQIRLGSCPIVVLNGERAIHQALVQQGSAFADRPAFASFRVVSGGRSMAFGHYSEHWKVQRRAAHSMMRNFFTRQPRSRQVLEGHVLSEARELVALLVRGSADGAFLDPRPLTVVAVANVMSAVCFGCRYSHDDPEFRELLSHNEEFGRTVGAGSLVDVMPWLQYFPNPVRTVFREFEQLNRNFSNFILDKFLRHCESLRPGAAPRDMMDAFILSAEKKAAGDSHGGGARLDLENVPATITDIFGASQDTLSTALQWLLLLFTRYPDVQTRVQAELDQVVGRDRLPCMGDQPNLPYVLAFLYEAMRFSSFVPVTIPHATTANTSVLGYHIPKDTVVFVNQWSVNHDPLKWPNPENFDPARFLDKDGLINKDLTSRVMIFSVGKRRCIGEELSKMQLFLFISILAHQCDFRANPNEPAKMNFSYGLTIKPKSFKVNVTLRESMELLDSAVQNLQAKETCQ
Sequence of UniProt O32080 (whole entry, looked up): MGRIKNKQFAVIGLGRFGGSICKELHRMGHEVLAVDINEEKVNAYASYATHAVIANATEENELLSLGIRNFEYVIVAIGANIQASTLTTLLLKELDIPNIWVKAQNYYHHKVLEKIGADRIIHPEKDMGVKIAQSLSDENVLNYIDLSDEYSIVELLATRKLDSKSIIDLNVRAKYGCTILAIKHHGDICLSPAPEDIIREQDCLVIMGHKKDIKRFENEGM
Sequence of UniProt E9QYP0 (whole entry, looked up): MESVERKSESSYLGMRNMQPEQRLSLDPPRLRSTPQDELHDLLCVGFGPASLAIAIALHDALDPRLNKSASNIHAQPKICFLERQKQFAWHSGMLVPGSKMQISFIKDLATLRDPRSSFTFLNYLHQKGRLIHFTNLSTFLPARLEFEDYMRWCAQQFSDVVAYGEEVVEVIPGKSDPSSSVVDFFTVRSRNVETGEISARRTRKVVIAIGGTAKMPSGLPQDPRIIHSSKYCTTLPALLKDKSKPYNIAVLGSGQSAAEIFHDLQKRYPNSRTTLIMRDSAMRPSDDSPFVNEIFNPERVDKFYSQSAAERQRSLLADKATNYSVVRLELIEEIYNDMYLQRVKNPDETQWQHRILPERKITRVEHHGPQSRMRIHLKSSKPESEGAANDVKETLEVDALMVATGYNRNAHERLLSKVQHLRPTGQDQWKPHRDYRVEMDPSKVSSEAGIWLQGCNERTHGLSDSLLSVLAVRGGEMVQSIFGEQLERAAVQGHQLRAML
Sequence of UniProt P02754 (whole entry, looked up): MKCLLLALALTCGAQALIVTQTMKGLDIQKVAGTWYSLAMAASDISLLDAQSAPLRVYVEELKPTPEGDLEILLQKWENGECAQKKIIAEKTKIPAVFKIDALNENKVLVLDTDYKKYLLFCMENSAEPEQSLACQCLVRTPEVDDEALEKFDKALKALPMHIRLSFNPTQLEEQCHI
Sequence of UniProt Q38087 (whole entry, unmodified, looked up): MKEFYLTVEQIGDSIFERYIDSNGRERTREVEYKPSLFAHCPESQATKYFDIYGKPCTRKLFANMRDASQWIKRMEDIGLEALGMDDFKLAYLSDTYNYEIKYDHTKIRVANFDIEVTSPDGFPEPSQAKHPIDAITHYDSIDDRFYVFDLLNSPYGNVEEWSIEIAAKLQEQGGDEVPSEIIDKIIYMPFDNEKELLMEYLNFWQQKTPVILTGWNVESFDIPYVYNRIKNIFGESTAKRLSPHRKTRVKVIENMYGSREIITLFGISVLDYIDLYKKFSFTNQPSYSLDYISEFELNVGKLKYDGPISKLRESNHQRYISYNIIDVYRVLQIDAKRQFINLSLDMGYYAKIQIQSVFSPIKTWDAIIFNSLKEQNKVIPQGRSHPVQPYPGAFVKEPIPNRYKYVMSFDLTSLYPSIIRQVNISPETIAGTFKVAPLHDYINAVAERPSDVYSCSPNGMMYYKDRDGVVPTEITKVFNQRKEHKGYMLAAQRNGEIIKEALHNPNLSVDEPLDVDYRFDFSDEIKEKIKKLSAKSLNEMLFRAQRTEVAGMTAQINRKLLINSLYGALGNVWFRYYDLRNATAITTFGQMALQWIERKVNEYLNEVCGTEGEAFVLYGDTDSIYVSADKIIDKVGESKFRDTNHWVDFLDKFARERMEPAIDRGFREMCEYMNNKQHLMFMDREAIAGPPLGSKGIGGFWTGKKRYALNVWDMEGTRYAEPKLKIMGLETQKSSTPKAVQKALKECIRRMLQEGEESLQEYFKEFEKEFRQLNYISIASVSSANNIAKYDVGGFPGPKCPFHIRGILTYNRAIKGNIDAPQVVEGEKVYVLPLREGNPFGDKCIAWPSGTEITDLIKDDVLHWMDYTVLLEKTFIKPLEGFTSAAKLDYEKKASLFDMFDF
Sequence of UniProt P0A0N4 (whole entry, looked up): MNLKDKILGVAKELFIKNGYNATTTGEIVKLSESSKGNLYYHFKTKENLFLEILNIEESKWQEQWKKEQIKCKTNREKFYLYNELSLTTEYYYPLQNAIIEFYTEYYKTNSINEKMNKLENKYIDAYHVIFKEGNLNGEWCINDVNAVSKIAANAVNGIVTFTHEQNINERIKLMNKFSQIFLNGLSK
Sequence of UniProt P22629 (whole entry, looked up): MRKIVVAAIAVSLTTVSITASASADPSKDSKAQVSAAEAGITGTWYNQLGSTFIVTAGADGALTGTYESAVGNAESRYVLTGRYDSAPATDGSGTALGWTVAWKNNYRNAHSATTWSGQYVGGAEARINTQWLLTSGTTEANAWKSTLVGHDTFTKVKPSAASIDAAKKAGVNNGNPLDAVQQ
Sequence of UniProt Q97W02 (whole entry, looked up): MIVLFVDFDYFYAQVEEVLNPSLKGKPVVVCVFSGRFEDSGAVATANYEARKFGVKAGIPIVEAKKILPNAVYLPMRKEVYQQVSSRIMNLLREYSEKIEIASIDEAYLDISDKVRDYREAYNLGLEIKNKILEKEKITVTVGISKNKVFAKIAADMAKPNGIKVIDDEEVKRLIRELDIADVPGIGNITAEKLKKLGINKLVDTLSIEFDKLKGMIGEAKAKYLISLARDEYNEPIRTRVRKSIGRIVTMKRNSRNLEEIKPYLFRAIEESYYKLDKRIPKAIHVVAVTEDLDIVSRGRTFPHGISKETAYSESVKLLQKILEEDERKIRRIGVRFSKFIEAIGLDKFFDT

Molecule	target or system	test	test system	conditions	how to read	endpoint	result
Nc1ncnc2c1ncn2[C@H]1C[C@H](O)[C@@H](COP(=O)(O)OP(=O)(O)OP(=O)(O)O)O1	DNA-directed DNA polymerase, with primer/template (43, Escherichia phage RB69, UniProt Q38087, D222A/D327A/Y567A)	fluorescence titration	–	dNTP opposite tC°	–	Kd	100000 ± 40000 nM
Nc1ncnc2c1ncn2[C@H]1C[C@H](O)[C@@H](COP(=O)(O)OP(=O)(O)OP(=O)(O)O)O1	DNA polymerase IV, with DNA (dbh, Saccharolobus solfataricus, UniProt Q97W02)	dNTP incorporation, substrate, single-turnover kinetics	–	37 °C, insertion opposite lesion, with: DNA with dG-C8-N-ABA lesion, Dpo4 120 nM	–	Kd	640000 ± 170000 nM
C[C@H]1CNCCc2ccc(Cl)cc21	–	–	Sprague-Dawley rat, male, plasma	subcutaneous, 3 mg/kg, 360 min	–	plasma concentration	5.97 ± 0.28 ng/mL
COc1ccc2cc3[n+](cc2c1OC)CCc1cc2c(cc1-3)OCO2	HTH-type transcriptional regulator QacR (qacR, Staphylococcus aureus, UniProt P0A0N4)	binding, tryptophan fluorescence quenching	–	pH 7.5	–	Kd	2860 ± 620 nM
CC(=O)N[C@@H](CC(C)C)C(=O)N[C@@H](CCCCN)C(=O)N[C@@H](CCCCN)C(=O)N[C@@H](CC(C)C)C(=O)N[C@@H](Cc1c[nH]c2ccccc12)C(=O)N[C@@H](CCCCN)C(=O)N[C@@H](CC(C)C)C(=O)N[C@@H](CC(C)C)C(=O)N[C@@H](CCCCN)C(=O)N[C@@H](CCCCN)C(=O)N[C@@H](CC(C)C)C(=O)N[C@@H](CC(C)C)C(=O)N[C@@H](CCCCN)C(=O)N[C@@H](CC(C)C)C(=O)N[C@@H](C)C(=O)NCC(N)=O	HCV IRES domain IV hairpin	competitive fluorescence anisotropy	–	pH 7.4, 20 °C, with: rhodamine-Rev peptide	–	Kd	2.8 ± 0.2 nM
CC[C@H](C)[C@H](NC(=O)[C@H](C)NC(=O)[C@H](CO)NC(=O)[C@@H](NC(=O)[C@H](CCC(=O)O)NC(=O)[C@H](CCC(=O)O)NC(=O)[C@H](CCC(N)=O)NC(=O)[C@H](CCCCN)NC(=O)[C@H](CCCNC(=N)N)NC(=O)[C@@H](N)CCCCN)C(C)C)C(=O)N[C@H](C(=O)N[C@H](C(=O)N[C@@H](CCC(N)=O)C(=O)N[C@@H](CCCNC(=N)N)C(=O)N[C@@H](C)C(=O)N[C@@H](Cc1ccc(O)cc1)C(=O)N[C@@H](CCCNC(=N)N)C(=O)N[C@@H](CCCNC(=N)N)C(=O)N[C@@H](Cc1ccc(O)cc1)C(=O)N[C@@H](CC(C)C)C(=O)N[C@@H](CC(C)C)C(=O)N[C@@H](CCCCN)C(=O)N[C@@H](CCC(N)=O)C(=O)N[C@@H](CCCCN)C(=O)N[C@H](C(=O)N[C@@H](CCCCN)C(=O)N[C@@H](CCCCN)C(=O)O)C(C)C)[C@@H](C)CC)C(C)C	Calmodulin (CAM, Paramecium tetraurelia, UniProt P07463)	binding, fluorescence anisotropy	Paramecium	pH 7.4, 22 °C, with: Ca2+-saturated calmodulin (1-148)	upper limit	Kd	≤ 10 nM
CN[C@@](C)(C[18F])C(=O)O	SK-OV-3 tumour model	–	host not given, tumour	15 min, tumour-bearing	–	tracer uptake	6.4 %ID/g
CNC(C)Cc1ccc2c(c1)OCO2 (racemic)	–	Drug Effects Questionnaire, refers to: Want More	human	oral, 1.5 mg/kg, mean over session, unit not given	reference: pre-dose baseline	subjective drug effect rating	41.5
[Cl-].[Cl-].[Mg+2]	Genome polyprotein, NS3 helicase domain (Hepatitis C virus genotype 1b, UniProt Q9WMX2)	binding, FRET	–	pH 6.25, with: 2 µM mantADP-BeF3	–	Kd	153000 nM
B1	Streptavidin (Streptomyces avidinii, UniProt P22629)	yeast display flow cytometry	–	–	–	Kd	2.1 nM
CC(C)(C)c1cc(S)cc(C(C)(C)C)c1O	ktrA (Bacillus subtilis, UniProt O32080)	binding, thermal shift	–	–	–	Kd	25000 nM
N=C(N)NCCC[C@@H]1NC(=O)[C@H](CCCCNC(=O)[C@H](CC(=O)O)NC(=O)[C@H](CC(=O)O)NC(=O)[C@H](CC(=O)O)NC(=O)CC[C@H](NC(=O)CCOCCOCCOCCOCCNC(=O)c2ccc(NN)nc2)C(=O)N[C@@H](CC(=O)O)C(=O)N[C@@H](CC(=O)O)C(=O)N[C@@H](CC(=O)O)C(=O)NCCCC[C@@H]2NC(=O)[C@@H](Cc3ccccc3)NC(=O)[C@H](CC(=O)O)NC(=O)CNC(=O)[C@H](CCCNC(=N)N)NC2=O)NC(=O)[C@@H](Cc2ccccc2)NC(=O)[C@H](CC(=O)O)NC(=O)CNC1=O [technetium-99m labelled]	–	γ-counting	female athymic nude mice, U-87 MG xenograft, intestine	intravenous, 2 h	–	tissue uptake	4.74 ± 0.33 %ID/g
CC[C@H](C)[C@H](NC(=O)[C@@H](CCCNC(=N)N)NC(=O)[C@H](CCCNC(=N)N)NC(=O)[C@@H]1CCCN1C(=O)[C@@H]1CCCN1C(=O)[C@H](CCCNC(=N)N)NC(=O)[C@@H]1CCCN1C(=O)[C@H](CCCNC(=N)N)NC(=O)[C@@H]1CCCN1C(=O)[C@H](CC(C)C)NC(=O)[C@H](Cc1ccc(O)cc1)NC(=O)[C@@H]1CCCN1C(=O)[C@@H]1CCCN1C(=O)[C@H](CCCCN)NC(=O)[C@H](CC(=O)O)NC(=O)[C@@H](N)C(C)C)C(=O)N[C@@H](Cc1ccc(O)cc1)C(=O)N[C@@H](CC(N)=O)C(=O)N[C@H](CCCNC(=N)N)C(N)=O	70S ribosome Acinetobacter baumannii ATCC 15308	binding, fluorescence polarization	–	90 min, pH 7.6, 28 °C, with: fluorescein-labelled peptide	–	Kd	73 ± 4 nM
NC(=O)c1ccc[n+]([C@@H]2O[C@H](COP(=O)([O-])OP(=O)(O)OC[C@H]3O[C@@H](n4cnc5c(N)ncnc54)[C@H](OP(=O)(O)O)[C@@H]3O)[C@@H](O)[C@H]2O)c1	L-ornithine N(5)-monooxygenase (Neosartorya fumigata, UniProt E9QYP0)	fluorescence polarization displacement	–	pH 7.0, with: 30 nM fluorescent probe	–	Kd	4000 ± 1000 nM
C=Cc1ccc2ccc3cccc4ccc1c2c34	Cytochrome P450 1B1 (CYP1B1, Homo sapiens, UniProt Q16678)	binding, fluorescence	–	pH 7.4	–	Kd	2000 nM and < 2500 nM
c1ccc(CCN2CCCCC2)cc1	opioid receptors, rat	binding	rat forebrain	with: [3H]naloxone 1 nM	–	Ki	> 10000 nM
[N-]=[N+]=Nc1ccc[n+]([C@@H]2O[C@H](COP(=O)([O-])OP(=O)(O)OC[C@H]3O[C@@H](n4cnc5c(N)ncnc54)[C@H](O)[C@@H]3O)[C@@H](O)[C@H]2O)c1	glucose dehydrogenase (Bacillus megaterium)	tryptophan fluorescence quenching	–	–	–	Kd	300000 nM
CC1=C(/C=C/C(C)=C/C=C/C(C)=C/C=C/C=C(C)/C=C/C=C(C)/C=C/C2=C(C)C(=O)[C@@H](O)CC2(C)C)C(C)(C)C[C@H](O)C1=O	Beta-lactoglobulin (LGB, Bos taurus, UniProt P02754)	binding	–	–	–	Kd	1920 ± 40 nM
[123I]c1cncc(OC[C@@H]2CCN2)c1	–	SPECT	human, high plasma nicotine, thalamus	intravenous, dose not given	reference: plasma	tissue/plasma ratio	27.5

Some of these lines once more:
Molecule	target or system	test	test system	conditions	how to read	endpoint	result
COc1ccc2cc3[n+](cc2c1OC)CCc1cc2c(cc1-3)OCO2	HTH-type transcriptional regulator QacR (qacR, Staphylococcus aureus, UniProt P0A0N4)	binding, tryptophan fluorescence quenching	–	pH 7.5	–	Kd	2860 ± 620 nM
